Measured values of several laboratories.
Numbered parts are unrelated; each lists some results of a single study. Positions count from the first letter of the parent shown.

Study 1
Target: Centromere-binding protein 1, full length, His-tagged (CBF1, Saccharomyces cerevisiae, UniProt P17106, residues 1-351)
UniProt P17106, sequence (whole entry, looked up): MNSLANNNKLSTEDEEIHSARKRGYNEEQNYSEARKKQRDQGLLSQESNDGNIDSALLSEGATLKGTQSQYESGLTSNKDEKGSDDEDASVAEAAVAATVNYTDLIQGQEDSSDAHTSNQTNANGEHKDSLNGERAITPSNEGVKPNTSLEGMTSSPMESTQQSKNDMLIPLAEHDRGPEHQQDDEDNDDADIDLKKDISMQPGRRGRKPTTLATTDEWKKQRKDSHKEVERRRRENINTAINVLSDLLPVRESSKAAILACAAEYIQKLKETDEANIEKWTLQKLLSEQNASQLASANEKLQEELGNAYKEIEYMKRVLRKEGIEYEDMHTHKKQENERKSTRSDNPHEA
Technique: competition protein-binding microarray
Molecule type: double-stranded DNA, one strand shown
Matrix: in vitro
Concentration: 2 µM
Notes: whole 60-bp probe, lowest competitor level
Added: Pho4 competitor, 0.05 µM
Direction: higher = stronger binding
Endpoint: fluorescence intensity
All sequences stand within: … GTCTTGATTCGCTTGACGCTGCTG
Oligonucleotide = GGAGACGAAGGATGGGGCGTGCTGTCATTAGAGGTA; result = 73.1 a.u.
Oligonucleotide = GTTTCGACTTGCCACAACGTGCTTTCGGTTTCTTGT; result = 98.9 a.u.
Oligonucleotide = GAATTTTTTCGAATTAGCGTGCTTTCACTGCTTGCA; result = 80.3 a.u.
Oligonucleotide = CATACCCAACCTTGGATAGTGGGTGAAGATATTTGT; result = 74.6 a.u.
Oligonucleotide = TCCGCATGGAAACGAAACGTGGGTATGACTTGGAAG; result = 88.3 a.u.
Oligonucleotide = TTGACGTTGCATATCAACGTGCCAGATCCCGGAATA; result = 111 a.u.
Oligonucleotide = CAAGGATACTAGAACCATGTGAGAATCGGTACCGTT; result = 96.8 a.u.
Oligonucleotide = CTTTCCCGATCTTGACCTGTGGGTGTAGCACATTTG; result = 70.8 a.u.
Oligonucleotide = AAATTACTAAGTTGTCAGGTGGGTGACGCCGTATGA; result = 151 a.u.
Oligonucleotide = ACTTACTACAAGCTCAACGTGACTCGTTTGGTGTTC; result = 668 a.u.
Oligonucleotide = CTTTCCCGATCTTGGTAGGTGGGTGTAGCACATTTG; result = 80.5 a.u.
Oligonucleotide = TGCGCAACAACTTTTCACGTGCACTTATGTCTAGAA; result = 1210 a.u.
Oligonucleotide = ATATCAAATTCATTGAAGGAGGTCCCAACCGCGAGA; result = 88.3 a.u.
Oligonucleotide = CCACAAGGAATTTGGAACGTGCCGACGTTACTATTG; result = 104 a.u.
Oligonucleotide = GAAGAGGTGCCTTGTCACCTGACGCCTTATTTTGTG; result = 1350 a.u.
Oligonucleotide = CTTTCCCGATCTTGCCTGGTGGGTGTAGCACATTTG; result = 85.2 a.u.

Study 2
Target: CCNE1, cyclin fold, Cln2 fusion (human)
Technique: yeast growth competition, sequencing
Matrix: yeast
Notes: weak parent motif
Reference: not given
Direction: higher = stronger binding
Endpoint: normalised enrichment score
Starting sequence: RB1 docking peptide (human); PKPLKKLRFDIEG
Substitution = L7K; result = 0.925
Substitution = R8P; result = 0.637
Substitution = F9I; result = -0.0397
Substitution = L4V; result = -0.2
Substitution = K2I; result = 0.724
Substitution = F9A; result = 0.905
Substitution = K6N; result = 0.00949
Substitution = K5P; result = -0.577
Substitution = L4S; result = 0.706
Substitution = P1A; result = 0.271
Substitution = I11R; result = -0.985
Substitution = K6I; result = 0.0155
Substitution = L4C; result = 0.603
Substitution = R8E; result = 0.309
Substitution = I11T; result = -0.914
Substitution = F9Y; result = -0.825
Substitution = F9C; result = -0.287
Substitution = R8D; result = 0.38

Study 3
Target: Histone acetyltransferase KAT6A, winged helix 1, GST fusion (KAT6A, Homo sapiens, UniProt Q92794, residues 1-85)
Technique: protein binding microarray
Molecule type: double-stranded DNA, one strand shown
Matrix: in vitro
Concentration: not given
Notes: 8-mer, flanks averaged, mean of 2 arrays, mostly near background
Reference: not given
Direction: higher = stronger binding
Endpoint: E-score
Residues (chain): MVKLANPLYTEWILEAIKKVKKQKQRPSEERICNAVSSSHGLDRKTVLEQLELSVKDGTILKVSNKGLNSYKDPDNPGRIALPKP
Oligonucleotide = ATATACTG; result = -0.0613
Oligonucleotide = GGTACTTA; result = 0.0184
Oligonucleotide = GGGGCCAA; result = -0.0315
Oligonucleotide = ACGCAAAC; result = 0.0936
Oligonucleotide = ATGTATGC; result = 0.00886
Oligonucleotide = CACGGCCA; result = 0.221
Oligonucleotide = TGTTAAAA; result = -0.165
Oligonucleotide = GGAAAAAC; result = 0.0141
Oligonucleotide = CTATGAAG; result = -0.168
Oligonucleotide = ATAGAGTG; result = -0.09
Oligonucleotide = CAGAGGCC; result = 0.0157
Oligonucleotide = CTTTAACA; result = 0.0884
Oligonucleotide = CAGTCGTC; result = -0.122
Oligonucleotide = TATACACA; result = -0.0784
Oligonucleotide = ACGTTATG; result = -0.0411
Oligonucleotide = CGTGTACC; result = 0.0724
Oligonucleotide = AGGGTCCA; result = -0.163
Oligonucleotide = CGACCGAG; result = 0.206
Oligonucleotide = AACCGTAC; result = 0.207
Oligonucleotide = AGAACGGA; result = 0.0198
Oligonucleotide = AATAGGTA; result = -0.132
Oligonucleotide = AGGACCAG; result = -0.0474
Oligonucleotide = ATAGAGGA; result = -0.301
Oligonucleotide = GGAAGAAC; result = 0.0171
Oligonucleotide = GATATATA; result = -0.0936

Study 4
Target: RNA binding protein fox-1 homolog 2, RRM domain, GST-SBP tag (RBFOX2, Homo sapiens, UniProt O43251-10, residues 100-194)
Technique: RNA Bind-n-Seq
Molecule type: RNA
Matrix: in vitro
Concentration: 365 nM
Notes: natural RNA segment, single round, ends assumed
Reference: no-protein control
Direction: higher = stronger binding
Endpoint: RBNS enrichment (R)
All sequences stand within: GGGAGUUCUACAGUCCGACGAUC … UGGAAUUCUCGGGUGCCAA
Construct (chain): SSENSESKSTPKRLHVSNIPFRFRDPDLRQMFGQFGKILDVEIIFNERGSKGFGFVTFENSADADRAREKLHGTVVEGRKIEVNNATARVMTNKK
Oligonucleotide = UUGUAGAAAAAAAAAAUCACAUCAUGGUGCUCCUGCGAUCAGCUUCUGAAGUGCUGGGAGCAUAGGAAGAUUGACAUUCUGUGUGACUUGUGAGGCUCAGAUGCUGAUAC; result = 0.307
Oligonucleotide = GUAAUUUUUAUAAUUAUGAUGUAACUCUUAUCCUUCCUUAAAACAUUAAAAUAAACCCUUUAUGUGCAACUUGUGGCUGUGAACUUUGUGCUGCUGUGUUGAAUCUGCUG; result = 0.562
Oligonucleotide = AUAGAAGGCUGUUAAAGUGACUCAGGCAGGAAUUAAUUAUUCUGUACCUAAGGGGUUACUUGUUUAAUGGGAUGGCAUUGACUUUUUGAAAAUCAAGUGGACUGAGUCAU; result = 0.389
Oligonucleotide = AAAAUACAUGUUUAUAGGAUGCGAUUGUUUCAACUUUCUUUUUCCAUUUUAAGAAGAUUCCAUUUCGGAAGAAGAUGCCGAAAUUUACAAAUUUCGCCAUACUCAGUGGG; result = 0.514
Oligonucleotide = GUAGUUGUUCACUGCUUUCCUGGAUGGAUGGGACUCUUAUGUCAUAACUUCUGUUACUCCUUUGGCCCAUAGCUAAGGUCAUCCUUCCCCACAGGGGUGGCUUUGGGAUU; result = 0.339
Oligonucleotide = UCAUUUAGGGAGGUGGAUAUUCUGAUGAAGAUCUUUAUCCUAAACCUUCCUACUAUCCUUGUCUUAUUCAUCAAGCAGAUAUUUUAGUCAAGAAUUCCAGAGAAGGCUGC; result = 0.43
Oligonucleotide = GAAAGCCCGCAUCACAGUGUUCAGUGACUGCUCUGCUCCAUUCUUUCUCCUCUCCAGUUUCUCUCUUGAAAGUCAAACAGUUUUGUAGUUGAAGCAGUCCGUGUGCAAAG; result = 0.354
Oligonucleotide = GUGAGUUUAGCCAAACUAACAGCAGAAAUAAUACUGGAUUUUGAGUAAGCAGACUUAGGAGAAUAUUUGUUUUAAAAUUCAUGUAACAGAUUUCCCUUUGAAGAAACACU; result = 0.455

Study 5
Target: ABI1, truncated, D143A, DHFR fusion (Arabidopsis thaliana)
Technique: DHFR PCA, deep sequencing
Matrix: yeast
Notes: methotrexate growth selection, single substitutions
Added: (+)-ABA 0.39 µM
Reference: wild-type fitted maximum
Direction: higher = stronger binding
Endpoint: relative binding score
Starting sequence: PYL1, truncated, DHFR fusion (Arabidopsis thaliana); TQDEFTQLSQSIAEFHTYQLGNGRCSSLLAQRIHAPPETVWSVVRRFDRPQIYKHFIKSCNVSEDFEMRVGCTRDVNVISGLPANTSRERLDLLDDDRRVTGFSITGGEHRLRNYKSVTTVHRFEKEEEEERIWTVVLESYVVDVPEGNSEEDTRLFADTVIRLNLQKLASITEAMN; partner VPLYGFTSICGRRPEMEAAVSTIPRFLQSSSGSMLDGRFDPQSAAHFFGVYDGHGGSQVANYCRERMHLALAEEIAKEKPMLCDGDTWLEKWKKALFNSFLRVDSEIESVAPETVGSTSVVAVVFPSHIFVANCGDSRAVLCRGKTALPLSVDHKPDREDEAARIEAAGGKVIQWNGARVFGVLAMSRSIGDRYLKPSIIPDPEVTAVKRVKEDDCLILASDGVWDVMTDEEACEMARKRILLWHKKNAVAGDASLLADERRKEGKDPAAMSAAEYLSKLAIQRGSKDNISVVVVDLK
Substitution = L164I; result = 7.16%
Substitution = E174V; result = -0.411%
Substitution = E174P; result = -5.56%
Substitution = R132P; result = 55%
Substitution = Y53E; result = 1.04%
Substitution = R98N; result = 23.4%
Substitution = R98Q; result = 18%
Substitution = E127P; result = 61.5%
Substitution = G102V; result = -2.52%
Substitution = R90L; result = -1.31%
Substitution = T160W; result = -1.99%
Substitution = E38G; result = 5.68%
Substitution = E4Q; result = 24.2%
Substitution = T154F; result = -43.5%
Substitution = S140H; result = 9.29%
Substitution = M68H; result = 7.42%
Substitution = R45F; result = -7.67%
Substitution = I133G; result = 61.5%
Substitution = L169P; result = 2.5%
Substitution = K126L; result = 41.5%
Substitution = F47A; result = -13.9%
Substitution = N61F; result = 41.5%
Substitution = L29P; result = -0.731%
Substitution = S104K; result = -8.46%

Some of these lines once more (study 3):
Oligonucleotide = CAGAGGCC; result = 0.0157
Oligonucleotide = CTTTAACA; result = 0.0884
Oligonucleotide = CAGTCGTC; result = -0.122
Oligonucleotide = TATACACA; result = -0.0784
Oligonucleotide = ACGTTATG; result = -0.0411
Oligonucleotide = CGTGTACC; result = 0.0724
Oligonucleotide = AGGGTCCA; result = -0.163
Oligonucleotide = CGACCGAG; result = 0.206
Oligonucleotide = AACCGTAC; result = 0.207
Oligonucleotide = AGAACGGA; result = 0.0198
Oligonucleotide = AATAGGTA; result = -0.132
Oligonucleotide = AGGACCAG; result = -0.0474
